Measurements pooled from the literature.
Each numbered part is a random draw from the data of one study; scales do not carry over between parts. Substitutions count along the parent as printed.
UniProt O15294, sequence (whole entry, looked up): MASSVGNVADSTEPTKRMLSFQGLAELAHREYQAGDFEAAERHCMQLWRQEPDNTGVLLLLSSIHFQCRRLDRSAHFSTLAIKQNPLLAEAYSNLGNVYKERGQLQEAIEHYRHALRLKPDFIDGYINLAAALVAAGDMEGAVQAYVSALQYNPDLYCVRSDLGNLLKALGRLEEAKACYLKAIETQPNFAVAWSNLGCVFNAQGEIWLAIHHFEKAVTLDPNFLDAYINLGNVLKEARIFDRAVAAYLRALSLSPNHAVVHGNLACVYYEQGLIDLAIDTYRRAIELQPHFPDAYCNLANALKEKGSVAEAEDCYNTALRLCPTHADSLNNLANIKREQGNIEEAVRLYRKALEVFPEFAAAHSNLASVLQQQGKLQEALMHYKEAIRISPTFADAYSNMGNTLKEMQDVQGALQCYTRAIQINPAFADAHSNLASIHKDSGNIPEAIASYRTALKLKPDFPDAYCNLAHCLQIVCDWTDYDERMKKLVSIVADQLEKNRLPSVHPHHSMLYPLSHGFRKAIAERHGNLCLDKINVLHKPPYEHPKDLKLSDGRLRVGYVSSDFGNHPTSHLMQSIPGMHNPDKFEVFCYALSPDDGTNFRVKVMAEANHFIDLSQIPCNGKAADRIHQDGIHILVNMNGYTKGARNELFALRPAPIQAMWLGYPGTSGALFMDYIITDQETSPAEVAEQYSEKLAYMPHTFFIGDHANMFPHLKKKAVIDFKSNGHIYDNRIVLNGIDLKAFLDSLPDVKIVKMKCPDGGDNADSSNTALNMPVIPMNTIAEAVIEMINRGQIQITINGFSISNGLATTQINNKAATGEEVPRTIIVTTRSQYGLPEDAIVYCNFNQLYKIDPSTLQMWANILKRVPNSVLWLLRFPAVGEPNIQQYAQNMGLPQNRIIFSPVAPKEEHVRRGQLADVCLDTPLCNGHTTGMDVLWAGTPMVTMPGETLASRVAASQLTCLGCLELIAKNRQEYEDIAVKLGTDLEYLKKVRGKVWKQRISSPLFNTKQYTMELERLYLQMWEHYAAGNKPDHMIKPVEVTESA

Sample 1
Target: Prothrombin, mature alpha-thrombin (F2, Homo sapiens, UniProt P00734)
Technique: aptamer microarray, sandwich
Form: DNA with 2'F-ANA
Matrix: in vitro
Concentration: 200 nM
Notes: whole 15-mer aptamer, many near background
Added: Cy3 exosite-II aptamer, 400 nM
Reading: higher = stronger binding
Oligonucleotide: GGTTGGTGTGGTTGG
`2'F-ANA at 2 3 5 6 7 8 10 11 13 14 15`: “mean fluorescence intensity” 51.8 a.u.
`2'F-ANA at 4 5 6 8 13` — result for “mean fluorescence intensity”: 53.1 a.u.
`2'F-ANA at 1 2 3 4 5 6 11 12 14`: “mean fluorescence intensity” 48.4 a.u.
For `2'F-ANA at 2 3 8 10 12 14 15`, “mean fluorescence intensity” read 271 a.u.
For `2'F-ANA at 3 6 8 10`, “mean fluorescence intensity” read 517 a.u.
For `2'F-ANA at 1 2 8 9 10 11 12 14`, “mean fluorescence intensity” read 98.8 a.u.
`2'F-ANA at 3 4 7 8 9 10 12 13`: “mean fluorescence intensity” 350 a.u.
For `2'F-ANA at 1 2 7 8 9 11 13 15`, “mean fluorescence intensity” read 228 a.u.

Sample 2
Target: TAR DNA-binding protein 43, full length, His tag (TARDBP, Homo sapiens, UniProt Q13148, residues 1-414)
Technique: RNA Bind-n-Seq
Form: RNA
Matrix: in vitro
Concentration: 20 nM
Notes: 6-mer, flanks averaged, single round
Added: 150 mM KCl
Relative to: input library
Reading: higher = stronger binding
`UGUCUC` — result for “6-mer enrichment (R)”: 0.605.
`CCGUCG` — result for “6-mer enrichment (R)”: 0.825.
`GAUUAA`: “6-mer enrichment (R)” 0.629.
For `AGUUGU`, “6-mer enrichment (R)” read 0.783.
Under “6-mer enrichment (R)”, `GUGGCC` is recorded as 1.43.
Under “6-mer enrichment (R)”, `ACCUGU` is recorded as 0.629.
Under “6-mer enrichment (R)”, `GCGACG` is recorded as 1.71.
`GGAUGA` — result for “6-mer enrichment (R)”: 1.6.

Sample 3
Target: CCNB3, cyclin fold, Cln2 fusion (human)
Technique: yeast growth competition, sequencing
Matrix: yeast
Notes: weak parent motif
Relative to: not given
Reading: higher = stronger binding
Starting sequence: CDC6 docking peptide (human); TLKGRRLVFDNQL
Under “normalised enrichment score”, `L2D` is recorded as 0.0117.
`R6F`: “normalised enrichment score” -0.179.
`K3S`: “normalised enrichment score” 0.171.
`K3H` — result for “normalised enrichment score”: 0.00536.
`L7E` — result for “normalised enrichment score”: 0.291.
`R6K` — result for “normalised enrichment score”: 0.102.
`T1E` — result for “normalised enrichment score”: 0.619.
Under “normalised enrichment score”, `L2N` is recorded as -0.204.

Single results of other studies
For `TAPFYPPAYEI`, “enrichment fold change” read 1.59 (UDP-N-acetylglucosamine--peptide N-acetylglucosaminyltransferase 110 kDa subunit (OGT, Homo sapiens, UniProt O15294); binding, phage display NGS; peptide; concentration not given; relative to: input library).

A few entries again (sample 1):
For `2'F-ANA at 3 6 8 10`, “mean fluorescence intensity” read 517 a.u.
`2'F-ANA at 1 2 3 4 5 6 11 12 14`: “mean fluorescence intensity” 48.4 a.u.
`2'F-ANA at 2 3 5 6 7 8 10 11 13 14 15`: “mean fluorescence intensity” 51.8 a.u.
For `2'F-ANA at 1 2 7 8 9 11 13 15`, “mean fluorescence intensity” read 228 a.u.
